Measurements from different studies.
Every numbered part comes from another study and shows a few of its results, in no order. Changes are numbered by the printed parent chain.
Sequence of UniProt Q9UBX1 (whole entry, looked up): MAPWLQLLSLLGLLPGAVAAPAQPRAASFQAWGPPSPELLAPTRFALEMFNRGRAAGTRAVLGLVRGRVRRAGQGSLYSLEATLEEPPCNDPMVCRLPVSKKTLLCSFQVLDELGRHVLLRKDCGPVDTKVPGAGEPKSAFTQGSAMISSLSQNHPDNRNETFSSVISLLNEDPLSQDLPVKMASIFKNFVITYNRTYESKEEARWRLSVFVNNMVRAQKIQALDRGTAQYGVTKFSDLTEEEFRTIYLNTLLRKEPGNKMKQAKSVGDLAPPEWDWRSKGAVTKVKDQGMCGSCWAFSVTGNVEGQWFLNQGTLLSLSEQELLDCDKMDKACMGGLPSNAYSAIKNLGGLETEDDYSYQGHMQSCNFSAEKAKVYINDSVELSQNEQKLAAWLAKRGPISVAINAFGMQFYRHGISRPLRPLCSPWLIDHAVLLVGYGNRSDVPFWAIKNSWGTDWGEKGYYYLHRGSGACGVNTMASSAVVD

Sample 1 — target: CCND3, cyclin fold, Cln2 fusion (human); method: yeast growth competition, sequencing; medium: yeast; notes: weak parent motif; reference: not given; direction: higher = stronger binding
Starting sequence: viral docking peptide; KGVKRKLFAEDSS; partner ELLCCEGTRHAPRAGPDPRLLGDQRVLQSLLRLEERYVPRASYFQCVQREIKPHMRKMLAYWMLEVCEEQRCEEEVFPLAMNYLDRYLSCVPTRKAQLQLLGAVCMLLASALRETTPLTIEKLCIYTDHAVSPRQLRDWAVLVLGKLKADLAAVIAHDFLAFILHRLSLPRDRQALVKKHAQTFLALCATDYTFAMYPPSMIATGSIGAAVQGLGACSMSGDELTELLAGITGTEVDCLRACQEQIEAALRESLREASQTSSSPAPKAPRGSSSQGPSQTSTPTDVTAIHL
Under “normalised enrichment score”, `S12R` is recorded as 0.486.
`K4Y`: “normalised enrichment score” -0.0904.
`E10K`: “normalised enrichment score” -0.053.
Under “normalised enrichment score”, `S12M` is recorded as -0.261.
For `L7E`, “normalised enrichment score” read 0.595.
`L7G`: “normalised enrichment score” 0.274.
Under “normalised enrichment score”, `S12T` is recorded as -0.0392.
`R5N` — result for “normalised enrichment score”: 0.149.

Sample 2 — observed: peptide-MHC binding; molecule type: peptide; tested at: concentration not given
Target: HLA class I histocompatibility antigen, A alpha chain, allele A*25:01 (Homo sapiens, UniProt P04439)
`LEFNSSLAI` — result for binding: “inactive”.
For `WLYDLWGQL`, binding read “inactive”.
`RPPYSSYGY` — result for binding: “inactive”.
`FTGEYLLRL`: binding “inactive”.
`LYVAGVPEL` — result for binding: “inactive”.
For `TTYVYTLPV`, binding read “inactive”.
`RTYSLLNRK` — result for binding: “inactive”.
`TRDHVNLVL`: binding “inactive”.

Other studies, line by line
B1: cystatin C; sequence looked up; chain SSPGKPPRLVGGPMDASVEEEGVRRALDFAVGEYNKASNDMYHSRALQVVRARKQIVAGVNYFLDVELGRTTCTKTQPNLDNCPFHDQPHLKRKAFCSFQIYAVPWQGTMTLSKSTCQDA
Cc1cc(Sc2ccc3c(c2)OCCCO3)n2ncnc2c1 has a viability of 257% (HEK-293T-ACE2-TMPRSS2; cell count; concentration not given).
`B1 (cystatin C)` has an inhibition of 73% (Cathepsin F (Homo sapiens, UniProt Q9UBX1); enzyme activity; 1 µM).

Excerpt of the above (sample 2):
For `WLYDLWGQL`, binding read “inactive”.
`RPPYSSYGY` — result for binding: “inactive”.
`FTGEYLLRL`: binding “inactive”.
